Published values gathered from unrelated publications.
Every numbered part comes from another study and shows a few of its results, in no order.

Block 1 — observed: enzyme activity; action: inhibitor; concentration: 20 µM; measurement: inhibition
Target: Replicase polyprotein 1ab, polymerase (rep, Severe acute respiratory syndrome coronavirus 2, UniProt P0DTD1)
COC(=O)C1=C(C)NC(C)=C(C(=O)O[C@@H]2CCCN(Cc3ccccc3)C2)[C@@H]1c1cccc([N+](=O)[O-])c1 (racemic): -0.2%
COc1ccc(C2(O)OC(=O)C(c3ccc4c(c3)OCO4)=C2Cc2cc(OC)c(OC)c(OC)c2)cc1 (stereo not drawn): -5.26%
Cn1ncnc1COc1nn2c(-c3c(F)cccc3F)nnc2cc1C1CCC1: 4.21%
CCn1cc(-c2cccc(C(F)(F)F)c2)c2sc(C(=N)NC3CCS(=O)(=O)CC3)cc2c1=O: -6.89%
CCOC(=O)c1ccc(C#Cc2ccc3c(c2)C(C)(C)CCS3)nc1: -8.27%
Oc1cc2c(cc1O)[C@@H]1c3ccc(O)c(O)c3OC[C@]1(O)C2: 5.29%
C=CCc1cccc(/C=N/NC(=O)CN2CCN(Cc3ccccc3)CC2)c1O: -2.24%
CC(=O)N(CC(O)CN(C(C)=O)c1c(I)c(C(=O)NC[C@@H](O)CO)c(I)c(C(=O)NC[C@@H](O)CO)c1I)c1c(I)c(C(=O)NC[C@@H](O)CO)c(I)c(C(=O)NC[C@@H](O)CO)c1I: -2.51%
c1ccc2c(Oc3nc(Nc4ccc(N5CCOCC5)cc4)c4ncn(C5CCCCC5)c4n3)cccc2c1: -2.65%
CC(C)(C)C[C@@H]1N[C@@H](C(=O)N[C@H]2CC[C@H](O)CC2)[C@H](c2cccc(Cl)c2F)[C@]12C(=O)Nc1cc(Cl)ccc12: -2.19%
O=C(c1ccccn1)c1cnn2c(-c3ccncc3)ccnc12: -10.5%
CC(C)[C@H](NS(=O)(=O)c1ccc(-c2ccc(Br)cc2)cc1)C(=O)O: -1.25%
NC(=O)CN1CC[C@@H](NC(=O)[C@@H]2CCCN2)C1=O: -6.58%
CN(C)c1ccc(-c2nc3ncc(Cl)c(N4CCN(CC(=O)Nc5nccs5)CC4)c3[nH]2)cc1: -3.29%
O=C(Cc1cccc(OC(F)(F)F)c1)Nc1ccc(CCCCc2nnc(NC(=O)Cc3ccccn3)s2)nn1: -0.87%
C=C1/C(=C\C=C2/CCC[C@]3(C)[C@@H]([C@H](C)CCCC(O)(C(F)(F)F)C(F)(F)F)CC[C@@H]23)C[C@@H](O)C[C@@H]1O: 2.7%
O=c1[nH]c2ccccc2n1C1CCN(CCOc2ccccc2)CC1: -1.38%
Cc1cc(C(C)(C)C)c(O)c(C)c1CC1=NCCN1: 32%
CC(N)CCCC(C)(C)O (stereo not drawn): -1.79%
CC(C)(F)C[C@H](N[C@@H](c1ccc(-c2ccc(S(C)(=O)=O)cc2)cc1)C(F)(F)F)C(=O)NC1(C#N)CC1: -4.01%
CC(C)=CCC/C(C)=C/CC/C(C)=C/CSc1ccccc1C(=O)O: -4.58%
CCOc1ccccc1OCC1CNCCO1 (stereo not drawn): -0.19%
CC(=O)N(OCc1ccccc1)[C@@H]1c2cc(C#N)ccc2OC(C)(C)[C@H]1O: -0.47%
CS(=O)(=O)c1ccc([C@@H](O)[C@@H](CF)NC(=O)C(Cl)Cl)cc1: -1.42%
C[C@@H]1CN(CCCn2c3ccccc3c3ccccc32)C[C@H](C)N1: 1.68%

Block 2 — method: protein-binding microarray; molecule type: double-stranded DNA, one strand shown; medium: in vitro; concentration: 250 nM; setting: 60-bp whole probe; with: salmon DNA 0.4 mg/ml; relative to: random background probes; reading: higher = stronger binding; measurement: log fluorescence; constant ends, left off below: GCCTAGCAC … GTCTTGATTCGCTTGACGCTGCTG
Target: Interferon regulatory factor 5, full length, phosphomimetic (IRF5, Homo sapiens, UniProt Q13568-2, residues 1-514, K96S/S451D/S453D/S456D/S462D)
TGCACTCTCTACATGTGTTTGTGCTAG: 0.318 z-score
TCAAGAAAGTGAAATACCACTGTGCTA: 1.13 z-score
TTAGATCTCCTTTTCCTTTAGTGCTAG: 0.385 z-score
GACGGATTGCTTATCCTGACGTGCTAG: -0.424 z-score
TTAGGTTTCGGGTTTCGGTAAGTGCTA: 9.74 z-score
GACGGACTGCGGTATCGGGACGTGCTA: 0.0198 z-score
GACGGTCTCGGACTTGGGACGTGCTAG: -0.427 z-score
TCAGAGTTCTGTTGCAAACTGTGCTAG: 0.0778 z-score

Block 3 — cell line: HEK-293T; observed: pseudovirus infection; organism: VSV pseudotyped with SARS-CoV-2 spike; concentration: 10 µM; time: 16 h; relative to: vehicle-treated; measurement: GFP-positive cells
C[N+](C)(C)CC(=O)O: 89.1%
CNCC(O)c1ccc(OC(=O)C(C)(C)C)c(OC(=O)C(C)(C)C)c1 (stereo not drawn): 61.3%
OCCOCCN1CCN(C(c2ccccc2)c2ccc(Cl)cc2)CC1 (stereo not drawn): 44%
C=C1[C@H](CO)[C@@H](O)C[C@@H]1n1cnc2c(=O)[nH]c(N)nc21: 99.8%

Block 4 — observed: enzyme activity; action: inhibitor; concentration: 20 µM; measurement: inhibition
Target: Replicase polyprotein 1ab, main protease (rep, Severe acute respiratory syndrome coronavirus 2, UniProt P0DTD1)
COc1nc2ccc(Br)cc2cc1[C@@H](c1ccccc1)[C@@](O)(CCN(C)C)c1cccc2ccccc12: -19.8%
Cc1ccc(-n2sc(=O)n(Cc3ccc(F)cc3)c2=O)cc1: 2.39%
Sc1nnc(-c2ccccc2Cl)o1: 82.2%
CC(C)(C)c1ccc(S(=O)(=O)/C=C/C#N)cc1: -7.9%

Block 5 — method: universal PBM; molecule type: double-stranded DNA, one strand shown; medium: in vitro; concentration: not given; reading: higher = stronger binding; measurement: E-score
Target: Sal-like protein 4, full length isoform B (SALL4, Homo sapiens, UniProt Q9UJQ4-2, residues 1-616)
Setting: 8-mer, flanks averaged, mean of replicates
GAACCTGC: -0.202
GATCTAGC: -0.181
CACCAAAC: 0.00838
AACAACAA: 0.12
AGTACCTC: -0.107
GCGGCTGA: -0.291
CTTTAGGC: -0.024
GAAGAACC: -0.24

Block 6 — method: protein binding microarray; molecule type: double-stranded DNA, one strand shown; medium: in vitro; concentration: not given; relative to: not given; reading: higher = stronger binding; measurement: E-score
Target: Histone acetyltransferase KAT6A, winged helix 1, GST fusion (KAT6A, Homo sapiens, UniProt Q92794, residues 1-85)
Setting: 8-mer, flanks averaged, mean of 2 arrays, mostly near background
Construct (chain): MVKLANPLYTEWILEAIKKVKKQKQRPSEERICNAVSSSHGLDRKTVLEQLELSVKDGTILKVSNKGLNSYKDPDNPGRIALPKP
ATAGACTC: -0.0728
ACCTCGCT: 0.098
AATCCGCC: 0.265
GTGCTTCA: -0.204
GGCCAGAC: -0.115
CGTAAAGA: 0.147
ACACAAAG: -0.172
ATTTGGGA: -0.28
